# Published values gathered from unrelated publications.
# Every numbered part comes from another study and shows a few of its results, in no order.

# Study 1
# Target: Histone acetyltransferase KAT6A, winged helix 2, GST fusion (KAT6A, Homo sapiens, UniProt Q92794, residues 85-181)
# Method: protein binding microarray
# Form: double-stranded DNA, one strand shown
# Sample: in vitro
# Tested at: not given
# Notes: 8-mer, flanks averaged, mean of 2 arrays, mostly near background
# Relative to: not given
# Reading: higher = stronger binding
# Construct (chain): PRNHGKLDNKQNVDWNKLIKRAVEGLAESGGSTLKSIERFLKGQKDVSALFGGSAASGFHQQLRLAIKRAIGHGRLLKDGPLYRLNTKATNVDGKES
Oligonucleotide,E-score
CCTGGCCC,0.152
AGGCCTTG,-0.0898
GGCCATGA,-0.000315

# Study 2
# Target: Sal-like protein 4, full length isoform B (SALL4, Homo sapiens, UniProt Q9UJQ4-2, residues 1-616)
# Method: universal PBM
# Form: double-stranded DNA, one strand shown
# Sample: in vitro
# Tested at: not given
# Notes: 8-mer, flanks averaged, mean of replicates
# Reading: higher = stronger binding
# Target sequence (chain): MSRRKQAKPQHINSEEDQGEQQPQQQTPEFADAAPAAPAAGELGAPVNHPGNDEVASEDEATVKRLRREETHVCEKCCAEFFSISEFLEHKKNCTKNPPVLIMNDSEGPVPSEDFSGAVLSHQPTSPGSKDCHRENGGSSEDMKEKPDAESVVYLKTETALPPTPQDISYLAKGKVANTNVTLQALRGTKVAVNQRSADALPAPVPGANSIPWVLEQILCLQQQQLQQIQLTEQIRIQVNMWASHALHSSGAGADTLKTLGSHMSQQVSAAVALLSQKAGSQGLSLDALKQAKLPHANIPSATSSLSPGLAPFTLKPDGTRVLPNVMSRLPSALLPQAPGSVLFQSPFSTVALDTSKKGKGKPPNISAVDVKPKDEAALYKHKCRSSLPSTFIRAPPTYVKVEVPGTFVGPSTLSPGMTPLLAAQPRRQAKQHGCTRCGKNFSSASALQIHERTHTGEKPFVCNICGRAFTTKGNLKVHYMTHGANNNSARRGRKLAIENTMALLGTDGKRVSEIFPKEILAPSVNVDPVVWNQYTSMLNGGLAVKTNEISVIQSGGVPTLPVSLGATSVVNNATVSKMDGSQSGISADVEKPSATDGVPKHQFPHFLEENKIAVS
Oligonucleotide,E-score
GGCAACGA,-0.152
CTGCCACC,-0.187
AACAAGAC,0.137
GAAATCGA,-0.0592
CCTGGAGA,-0.192

# Study 3
# Target: Interferon regulatory factor 7, full length, phosphomimetic (IRF7, Homo sapiens, UniProt Q92985, residues 1-503, S101K/S471D/S472D/S475D/S476D/S477D/S483D/S484D/S487D)
# Sequence of UniProt Q92985 (whole entry, unmodified, looked up): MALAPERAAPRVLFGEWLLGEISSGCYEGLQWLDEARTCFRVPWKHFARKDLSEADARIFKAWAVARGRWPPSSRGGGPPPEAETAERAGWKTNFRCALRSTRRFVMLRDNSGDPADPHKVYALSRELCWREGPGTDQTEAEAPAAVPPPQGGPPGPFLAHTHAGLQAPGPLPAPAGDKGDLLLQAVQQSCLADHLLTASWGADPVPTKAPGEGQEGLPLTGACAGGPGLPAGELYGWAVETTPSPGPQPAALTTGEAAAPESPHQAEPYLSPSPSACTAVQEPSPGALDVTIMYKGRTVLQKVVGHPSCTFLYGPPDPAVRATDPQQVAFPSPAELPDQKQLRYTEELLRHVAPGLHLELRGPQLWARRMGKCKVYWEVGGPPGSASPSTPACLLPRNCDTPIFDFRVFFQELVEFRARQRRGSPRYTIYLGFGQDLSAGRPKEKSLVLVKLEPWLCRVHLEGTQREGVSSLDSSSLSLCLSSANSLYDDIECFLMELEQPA
# Method: protein-binding microarray
# Form: double-stranded DNA, one strand shown
# Sample: in vitro
# Tested at: 250 nM
# Notes: 60-bp whole probe
# Together with: salmon DNA 0.4 mg/ml
# Relative to: random background probes
# Reading: higher = stronger binding
Oligonucleotide,log fluorescence
GCCTAGCACTCATGTTTCCATCTCTCACTGTGCTAGGTCTTGATTCGCTTGACGCTGCTG,2.63 z-score
GCCTAGCACTTAGGTCTCATTTTCCTTTAGTGCTAGGTCTTGATTCGCTTGACGCTGCTG,2.66 z-score
GCCTAGCACCACCGTCTTATTAAAAAACAGTGCTAGGTCTTGATTCGCTTGACGCTGCTG,0.542 z-score
GCCTAGCACTCATTTATGTCCTGTCTAACTGTGCTAGTCTTGATTCGCTTGACGCTGCTG,0.99 z-score

# Mixed results
Substance,target,test,system,conditions,scale,endpoint,result
"PhoQ, residues 284 288 289 292 302 303 ALVSVA","PhoP, residues 12 14 15 18 19 LWHVM (Escherichia coli, UniProt P23836)","Sort-seq, item: YFP reporter",E. coli,"PhoQ-PhoP variant library, together with: 10 µM Mg2+","relative to: high Mg2+ state, higher = stronger signaling",fold induction,9.32

# Repeated from above (study 1):
Oligonucleotide,E-score
CCTGGCCC,0.152
